Published values gathered from unrelated publications.
Numbered parts are unrelated; each lists some results of a single study.

Block 1
Target: Sal-like protein 4, full length isoform B (SALL4, Homo sapiens, UniProt Q9UJQ4-2, residues 1-616)
Technique: universal PBM
Molecule type: double-stranded DNA, one strand shown
Matrix: in vitro
Concentration: not given
Notes: 8-mer, flanks averaged, mean of replicates
Reading: higher = stronger binding
With `AGTGCATG` the E-score was 0.0401.
The E-score of `TATCGTAA` is reported as 0.233.
`AGCCTTAC` has an E-score of -0.156.
The E-score of `CCTTTTGC` is reported as -0.157.
With `CTCGTCAG` the E-score was -0.14.
The E-score of `CCAACCAA` is reported as -0.16.
`CCTACACA` has an E-score of 0.0572.
`AGTACCTC` gave an E-score of -0.107.

Block 2
Target: Centromere-binding protein 1, full length, N-terminal tag (CBF1, Saccharomyces cerevisiae, UniProt P17106, residues 1-351)
Chain of UniProt P17106 (whole entry, looked up): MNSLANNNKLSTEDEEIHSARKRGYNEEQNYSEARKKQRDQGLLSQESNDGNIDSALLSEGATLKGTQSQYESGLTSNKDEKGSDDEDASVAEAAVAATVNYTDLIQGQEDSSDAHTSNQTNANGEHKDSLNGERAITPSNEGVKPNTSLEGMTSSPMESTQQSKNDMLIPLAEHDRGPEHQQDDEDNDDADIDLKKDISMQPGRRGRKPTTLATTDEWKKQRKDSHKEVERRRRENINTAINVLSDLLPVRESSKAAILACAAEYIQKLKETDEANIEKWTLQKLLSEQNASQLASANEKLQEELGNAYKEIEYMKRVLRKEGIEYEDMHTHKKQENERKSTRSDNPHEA
Technique: protein-binding microarray
Molecule type: double-stranded DNA, one strand shown
Matrix: in vitro
Concentration: 0.8 µM
Notes: whole 60-bp probe, no competitor
Reading: higher = stronger binding
The fluorescence intensity of `CTATTTAGATTATATCACGTAGCTATTGTACTATTCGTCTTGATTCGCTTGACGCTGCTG` is reported as 584 a.u.
With `GAATTTCTAAACGGTGATGTTACCCGTCTAAATTAGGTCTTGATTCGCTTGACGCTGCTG` the fluorescence intensity was 519 a.u.
`CTAATAGGAACTTCTCACGCAATAATTTTAAAGTTCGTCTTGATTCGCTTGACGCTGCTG` has a fluorescence intensity of 509 a.u.
For `CTAAAACCGAGAGGTGACGTGAAATTCTTCCCATTCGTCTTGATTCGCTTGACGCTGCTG`, the fluorescence intensity was 549 a.u.
For `CTATTCAAACTTCATCATCAGAAAGGTATACTGTTCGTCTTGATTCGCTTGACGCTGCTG`, the fluorescence intensity was 529 a.u.
For `CTATCCTTTCTTAGCTTGGTGACGGAATATATTTTCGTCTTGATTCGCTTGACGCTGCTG`, the fluorescence intensity was 530 a.u.
For `GAAATTTTGAAATGCGTACACGTGAATTTTAGCTAGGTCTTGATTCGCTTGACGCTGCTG`, the fluorescence intensity was 3600 a.u.
For `CTATTAACTAGCGATGACGTGCTTCGATTGAGCTTCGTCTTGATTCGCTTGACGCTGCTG`, the fluorescence intensity was 524 a.u.

Block 3
Target: Replicase polyprotein 1ab, main protease (rep, Severe acute respiratory syndrome coronavirus 2, UniProt P0DTD1)
Read-out: enzyme activity
Action: inhibitor
Concentration: 20 µM
Notes: primary screen
With CN1CCN(c2cccc(Nc3nc4c(-c5ccc(S(C)(=O)=O)cc5)cccn4n3)c2)CC1 the inhibition was 33.8%.
COC(=O)C(N)CS (stereo not shown) has an inhibition of 33%.
With C=C1C(=O)O[C@H]2[C@H]1CC/C(C)=C/CC[C@@]1(C)O[C@@H]21 the inhibition was 56.5%.
With CN(C)c1ccc2c(c1)Sc1cc(N(C)C)ccc1N2 the inhibition was 41.9%.

Block 4
Target: TAR DNA-binding protein 43, full length, His tag (TARDBP, Homo sapiens, UniProt Q13148, residues 1-414)
Technique: RNA Bind-n-Seq
Molecule type: RNA
Matrix: in vitro
Concentration: 20 nM
Notes: 6-mer, flanks averaged, single round
Together with: 150 mM LiCl
Baseline: input library
Reading: higher = stronger binding
`AGAUUA`: “6-mer enrichment (R)” 0.83.
`UGACCA` — result for “6-mer enrichment (R)”: 0.88.
For `UCCUUU`, “6-mer enrichment (R)” read 1.06.
`CGAAUA`: “6-mer enrichment (R)” 0.827.

Block 5
Target: Replicase polyprotein 1ab, polymerase (rep, Severe acute respiratory syndrome coronavirus 2, UniProt P0DTD1)
Read-out: enzyme activity
Action: inhibitor
Concentration: 20 µM
The inhibition of Nc1ccc(C(=O)OCC(O)CO)cc1 (stereo not shown) is reported as 1.72%.
COc1cc(OC)c2c(=O)[nH]c(-c3cc(C)c(OCCO)c(C)c3)nc2c1 gave an inhibition of 0.41%.
CCO/N=C(\C(=O)N[C@@H]1C(=O)N2C(C(=O)[O-])=C(Sc3nc(-c4cc[n+](C)cc4)cs3)CS[C@H]12)c1nsc(NP(=O)(O)O)n1 has an inhibition of 1.1%.
The inhibition of CN1CCN(c2ccc3ccccc3n2)CC1 is reported as 1.41%.
CN1CCN(CCCCN2C(=O)CN(/N=C/c3ccc(-c4ccc(Cl)cc4)o3)C2=O)CC1 has an inhibition of 1.07%.
With OC[C@H]1O[C@H](O)[C@H](O)[C@@H](O)[C@@H]1O the inhibition was -0.37%.
For Nc1nccc(Oc2ccc(NC(=O)c3c[nH]cc(-c4ccc(F)cc4)c3=O)cc2F)c1Cl, the inhibition was -9.53%.
CC1(S(=O)(=O)O)CC(=O)c2ccccc2C1=O (stereo not shown) gave an inhibition of 0.1%.
COc1cc(OC)cc(-c2ccc3c(-c4ccc(F)cc4)[nH]nc3n2)c1 gave an inhibition of 0.07%.
O=C(NOCC(O)CO)c1cc(Br)c(F)c(F)c1Nc1ccc(I)cc1F (stereo not shown) has an inhibition of 11.7%.
CC(=O)O[C@]1(C(C)=O)CC[C@H]2[C@@H]3C=C(Cl)C4=CC(=O)[C@@H]5C[C@@H]5[C@]4(C)[C@H]3CC[C@@]21C gave an inhibition of 5.86%.
With Cc1csc(S(=O)(=O)N(CC(C)C)c2cc3c(cc2OCc2ccc(C(=O)O)cc2)CCC3)n1 the inhibition was 4.61%.
CO[C@@]1(NC(=O)C(C(=O)O)c2ccc(O)cc2)C(=O)N2C(C(=O)O)=C(CSc3nnnn3C)CO[C@@H]21 (stereo partly shown) has an inhibition of 16.9%.
COCCOC(=O)C1=C(C)NC(C)=C(C(=O)OC(C)C)C1c1cccc([N+](=O)[O-])c1 (stereo not shown) gave an inhibition of -2.77%.
The inhibition of CC1CCN(C(c2ccc(F)cc2)c2ccc(C(C)C(=O)O)cc2-c2ccc(C(F)(F)F)cc2)CC1 (stereo not shown) is reported as 0.64%.
For O=C(NCCCN1CCCCCC1)C(c1ccccc1)C1CCCCC1 (stereo not shown), the inhibition was -10.3%.
The inhibition of CO/N=C(\C(=O)N[C@@H]1C(=O)N2C(C(=O)O)=C(C)CS[C@H]12)c1csc(N)n1 is reported as -4.76%.
For CCC1(c2ccccc2)C(=O)N(COC)C(=O)N(COC)C1=O, the inhibition was 1.69%.
For COc1ccc(C(=O)Nc2sc3c(c2C(N)=O)CCCC3)cc1OC, the inhibition was 0.59%.
For COC(=O)[C@H](Cc1cccc(C(=N)N)c1)[C@@H](C)NC(=O)c1ccc(-c2cc[n+]([O-])cc2)cc1, the inhibition was -5.42%.
O=C(O)C[C@H]1CC[C@H](c2ccc(-c3ccc(Nc4ccc(C(F)(F)F)nc4)cn3)cc2)CC1 has an inhibition of -3.71%.
NC(=O)C(c1ccccc1)(c1ccccc1)[C@@H]1CCN(CCc2ccc3c(c2)CCO3)C1 has an inhibition of -7.38%.
With COC(=O)[C@H]1[C@H]2C[C@@H]3c4[nH]c5cc(OC)ccc5c4CCN3C[C@H]2C[C@@H](OC(=O)c2cc(OC)c(OC)c(OC)c2)[C@@H]1OC the inhibition was -3.65%.
For CCOc1ccc2nc(SCCN3CCOCC3)[nH]c2c1, the inhibition was -4.8%.
For CC(=O)NO, the inhibition was 4.3%.

Block 6
Cell line: HEK-293T
Read-out: pseudovirus infection
Organism: VSV pseudotyped with SARS-CoV-2 spike
Concentration: 10 µM
Time: 16 h
Baseline: vehicle-treated
For CO[C@H]1C(=O)[C@]2(C)[C@@H](OC)C[C@H]3OC[C@@]3(OC(C)=O)[C@H]2[C@H](OC(=O)c2ccccc2)[C@]2(O)C[C@H](OC(=O)[C@H](O)[C@@H](NC(=O)OC(C)(C)C)c3ccccc3)C(C)=C1C2(C)C, the GFP-positive cells was 79.4%.
The GFP-positive cells of O=c1ccc2ccc(OCCCCN3CCN(c4cccc5sccc45)CC3)cc2[nH]1 is reported as 74%.
With COC(=O)[C@@H]1CC2=CC(=O)CC[C@]2(C)[C@@]23O[C@@H]2C[C@@]2(C)[C@@H](CC[C@@]24CCC(=O)O4)[C@H]13 the GFP-positive cells was 52.7%.

Some of these lines once more (block 3):
With CN1CCN(c2cccc(Nc3nc4c(-c5ccc(S(C)(=O)=O)cc5)cccn4n3)c2)CC1 the inhibition was 33.8%.
COC(=O)C(N)CS (stereo not shown) has an inhibition of 33%.
With C=C1C(=O)O[C@H]2[C@H]1CC/C(C)=C/CC[C@@]1(C)O[C@@H]21 the inhibition was 56.5%.
With CN(C)c1ccc2c(c1)Sc1cc(N(C)C)ccc1N2 the inhibition was 41.9%.
